Results from different studies.
Numbered parts are unrelated; each lists some results of a single study.

Study 1
Target: Histone acetyltransferase KAT6A, winged helix 1, GST fusion (KAT6A, Homo sapiens, UniProt Q92794, residues 1-85)
Method: protein binding microarray
Molecule type: double-stranded DNA, one strand shown
Matrix: in vitro
Tested at: not given
Setting: 8-mer, flanks averaged, mean of 2 arrays, mostly near background
Relative to: not given
Reading: higher = stronger binding
Residues (chain): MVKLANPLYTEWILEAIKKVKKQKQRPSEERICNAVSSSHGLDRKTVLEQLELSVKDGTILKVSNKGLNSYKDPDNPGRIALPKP
| Sequence | E-score |
| --- | --- |
| CCGCGGCA | 0.454 |
| AGGACACC | 0.0546 |
| ACCCATGG | -0.125 |
| AAATATCC | -0.0784 |
| AACGCATG | 0.056 |
| AGCCTAAA | -0.258 |
| AATCGGGG | 0.107 |
| GAGTTCCC | -0.0876 |

Study 2
Target: Replicase polyprotein 1ab, main protease (rep, Severe acute respiratory syndrome coronavirus 2, UniProt P0DTD1)
Effect on: enzyme activity
Action: inhibitor
Tested at: 20 µM
| Compound | inhibition [%] |
| --- | --- |
| O=C(O)CCCCCCCCCCCCCCc1ccc(I)cc1 | 4 |
| Cc1ccc(S(=O)(=O)/C=C/C#N)cc1 | -12.5 |
| NC[C@@H]1O[C@H](C23CC4CC(CC(C4)C2)C3)Cc2c1ccc(O)c2O | -14 |

Study 3
Target: Fragile X messenger ribonucleoprotein 1, C-terminal low-complexity region (Fmr1, Mus musculus, UniProt P35922)
Method: RNA Bind-n-Seq
Molecule type: RNA
Matrix: in vitro
Tested at: 200 nM
Setting: whole 134-nt RNA, ends assumed
Together with: 150 mM LiCl
Relative to: input library
Reading: higher = stronger binding
All molecules: 7-deaza-guanosine replaces G
| Sequence | log2 enrichment |
| --- | --- |
| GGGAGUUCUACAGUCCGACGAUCAAGUCCUGUGCUACACAUCGUAUGUACCGAAUCGGCCCCCGGCCCCCGGCCCCCGGGAAAGUAUUAUGUUACGCCGUUCGGAUCUGCACUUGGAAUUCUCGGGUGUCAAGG | 0.0244 |
| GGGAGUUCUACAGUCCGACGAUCCUCAAGUCCUGUGCUACACAUCGUAUGUACCGAAUCGGAAGGGGAAGGAAGGGAAAGUAUUAUGUUACGCCGUUCGGAUCUGCACUUCCAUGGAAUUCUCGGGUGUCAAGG | -0.0528 |
| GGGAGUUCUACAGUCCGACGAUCCCUGUGCUACACAUCGUAUGUACCGAAUCGGGGUUUUUUUGGGGAAAAAGGGGAAAGGGGAAAGUAUUAUGUUACGCCGUUCGGAUCUGCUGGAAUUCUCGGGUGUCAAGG | -1.3 |
| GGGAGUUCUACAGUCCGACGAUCACCAUGCAGCUGGGCAUCUUUGGGAAGUGGGGCAAGGGGGGGAUAGGGAGGGGGGUAACACUUUGGGAACAGGUGGUCCCAGGUCGUUUCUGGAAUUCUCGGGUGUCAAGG | 1.53 |
| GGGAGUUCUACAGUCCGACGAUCUCCUGUGCUACACAUCGUAUGUACCGAAUCGGGCCCCCCCGGCCCCCCCGGCCCCCCCGGAAAGUAUUAUGUUACGCCGUUCGGAUCUGCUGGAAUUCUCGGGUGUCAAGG | 1.35 |
| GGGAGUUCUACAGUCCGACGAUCUGGCCCUGGUGGCAUGCGGGGAGGAAGAGGUGGCCUCAUGGAUCGUGGUGGUCCCGGUGGAACGUUCAGAGGUGGCCGUGGUGGAGACAGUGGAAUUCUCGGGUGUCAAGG | 0.541 |
| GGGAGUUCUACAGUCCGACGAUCGUCCUGUGCUACACAUCGUAUGUACCGAAUCGGGGUUUUUGGGUUUUUGGUUUUUGGGGAAAGUAUUAUGUUACGCCGUUCGGAUCUGCAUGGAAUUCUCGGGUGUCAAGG | -1.54 |
| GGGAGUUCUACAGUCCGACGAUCUGGCCCUGGUGGCAUGCGGGGAGGAAGAGGUGGCCUCAUGGAUCGUGGUGGUCCCGGUGGAAUGUUCAGAGGUGACCGUGGUGGAGACAGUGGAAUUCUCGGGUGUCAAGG | -0.52 |

Study 4
Target: Replicase polyprotein 1ab, polymerase (rep, Severe acute respiratory syndrome coronavirus 2, UniProt P0DTD1)
Effect on: enzyme activity
Action: inhibitor
Tested at: 20 µM
| SMILES | inhibition [%] |
| --- | --- |
| C[N+]1(C)CCC(=C(c2ccccc2)c2ccccc2)CC1 | -1.13 |
| Cn1cnc([N+](=O)[O-])c1Sc1ncnc2[nH]cnc12 | -9.25 |
| CCOC(=O)[C@@H](N)CCC(=O)N[C@@H](CSCc1ccccc1)C(=O)N[C@@H](C(=O)OCC)c1ccccc1 | -0.84 |
| C=C1/C(=C\C=C2/CCC[C@]3(C)[C@@H]([C@H](C)/C=C/C=C/C(O)(CC)CC)CC[C@@H]23)C[C@@H](O)C[C@@H]1O | 4.73 |
| C[C@@H](O[C@H]1OCCN(Cc2n[nH]c(=O)[nH]2)[C@H]1c1ccc(F)cc1)c1cc(C(F)(F)F)cc(C(F)(F)F)c1 | 2.15 |
| O=C(NCc1ccncc1)C12CC3CC(C1)CC(c1ccc(Cl)cc1)(C3)C2 | -3.31 |
| O=C(Nc1ccccc1-c1cn2c(CN3CCNCC3)csc2n1)c1cnc2ccccc2n1 | 47 |
| CCN(CC)Cc1ccc(C(=O)N(CCc2ccccc2OC)[C@@H]2CCNC2)cc1 | -4.19 |
| CN(C)NC(=O)CCC(=O)O | -8.42 |
| C[C@]12C=CC(=O)C=C1CC[C@H]1[C@@H]3C[C@@H](O)[C@](O)(C(=O)CO)[C@@]3(C)C[C@H](O)[C@@]12F | 2.54 |
| FC(F)(F)c1cc(CO[C@H]2CCCN[C@H]2c2ccccc2)cc(C(F)(F)F)c1 | -4.03 |
| O=C(Nc1c(Cl)cncc1Cl)c1ccc(OC(F)F)c(OCC2CC2)c1 | -2.14 |
| Cc1ccc(NC(=O)Nc2cc(C(F)(F)F)ccc2F)cc1Nc1ccc2c(c1)NC(=O)/C2=C\c1ccc[nH]1 | -14.9 |
| COC(=O)N[C@H](C(=O)N[C@@H](Cc1ccccc1)[C@@H](O)CN(Cc1ccc(-c2ccccn2)cc1)NC(=O)[C@@H](NC(=O)OC)C(C)(C)C)C(C)(C)C | -2.76 |
| C[C@]12C=CC(=O)N[C@@H]1CC[C@@H]1[C@@H]2CC[C@]2(C)[C@@H](C(=O)Nc3cc(C(F)(F)F)ccc3C(F)(F)F)CC[C@@H]12 | -2.39 |
| COc1c(-c2ccc3cc(NS(C)(=O)=O)ccc3c2)cc(-n2ccc(=O)[nH]c2=O)cc1C(C)(C)C | 0.65 |
| C=CC[C@@H]1/C=C(\C)C[C@H](C)C[C@H](OC)[C@H]2O[C@@](O)(C(=O)C(=O)N3CCCC[C@H]3C(=O)O[C@H](/C(C)=C/[C@@H]3CC[C@@H](O)[C@H](OC)C3)[C@H](C)[C@@H](O)CC1=O)[C@H](C)C[C@@H]2OC | 0.05 |
| Cn1cc(C[C@@H](N)C(=O)O)c2ccccc21 | -2.74 |
| Cc1cccc(C)c1NC(=O)CN1CCCC1=O | 9.37 |
| C[N+](C)(C)CCCCCCCCCC[N+](C)(C)C | -4.99 |
| CC1(C)CCC(C)(C)c2c1cc(C(=O)Nc1cc(F)c(C(=O)O)c(F)c1)c(O)c2Cl | 4.96 |
| Cn1cc(-c2cnc3ccc4ccc(CS(=O)(=O)NCc5ccccn5)cc4c(=O)c3c2)cn1 | 16.4 |
| CCC[C@@H]1CC2=CC(=O)CC[C@]2(C)[C@H]2CC[C@@]3(C)[C@@H](CC[C@@]3(O)CCC(=O)O)[C@H]12 | 4.44 |
| CCOc1nc2c(N)ncnc2n1CC | -9.28 |
| CC1(C)OC[C@H](NC(=O)Nc2ccc(Br)cc2Br)[C@H](c2ccccc2)O1 | -17.7 |

Study 5
Target: Interferon regulatory factor 5, full length, phosphomimetic (IRF5, Homo sapiens, UniProt Q13568-2, residues 1-514, K96S/S451D/S453D/S456D/S462D)
Method: protein-binding microarray
Molecule type: double-stranded DNA, one strand shown
Matrix: in vitro
Tested at: 250 nM
Setting: 60-bp whole probe
Together with: salmon DNA 0.4 mg/ml
Relative to: random background probes
Reading: higher = stronger binding
Constant ends, left off below: GCCTAGCAC … GTCTTGATTCGCTTGACGCTGCTG
| Sequence | log fluorescence [z-score] |
| --- | --- |
| TTAGGTTTCCTTTCCATTTAGTGCTAG | 2 |
| GACGATCTCAGTATCGTGACGTGCTAG | 0.522 |
| TTAGGTATCCCTTTCCTTTAGTGCTAG | 0.531 |
| GTAGGTTTCGACACTGGGTTAGTGCTA | 5.31 |
| TTAGGTTCCGTTTTCCTTTAGTGCTAG | 1.45 |
| GACCATATCGGGTATCGAGACGTGCTA | 1.57 |
| TCATTTCTGTTGTCTGTGACTGTGCTA | 3.62 |
| TTAGGACTGGGGTTTCGGTTCGTGCTA | 5.18 |

Study 6
Cell line: HEK-293T
Effect on: pseudovirus infection
Method: FDA-approved drug library screen
Organism: VSV pseudotyped with SARS-CoV-2 spike
Tested at: 10 µM
Time: 16 h
Relative to: vehicle-treated
| Structure (SMILES) | GFP-positive cells [%] |
| --- | --- |
| COc1cc2nc(N3CCN(C(=O)C4CCCO4)CC3)nc(N)c2cc1OC (centres unmarked) | 81.6 |
| COc1cccc2c1C(=O)c1c(O)c3c(c(O)c1C2=O)C[C@@](O)(C(=O)CO)C[C@@H]3O[C@H]1C[C@H](N)[C@H](O)[C@H](C)O1 | 90.4 |
| CC[C@]1(O)C[C@H]2CN(CCc3c([nH]c4ccccc34)[C@@](C(=O)OC)(c3cc4c(cc3OC)N(C=O)[C@H]3[C@@](O)(C(=O)OC)[C@H](OC(C)=O)[C@]5(CC)C=CCN6CC[C@]43[C@@H]65)C2)C1 | 11 |
| CN1CCN2c3ncccc3Cc3ccccc3C2C1 (centres unmarked) | 111 |

Excerpt of the above (study 4):
| SMILES | inhibition [%] |
| --- | --- |
| Cc1ccc(NC(=O)Nc2cc(C(F)(F)F)ccc2F)cc1Nc1ccc2c(c1)NC(=O)/C2=C\c1ccc[nH]1 | -14.9 |
| COC(=O)N[C@H](C(=O)N[C@@H](Cc1ccccc1)[C@@H](O)CN(Cc1ccc(-c2ccccn2)cc1)NC(=O)[C@@H](NC(=O)OC)C(C)(C)C)C(C)(C)C | -2.76 |
| C[C@]12C=CC(=O)N[C@@H]1CC[C@@H]1[C@@H]2CC[C@]2(C)[C@@H](C(=O)Nc3cc(C(F)(F)F)ccc3C(F)(F)F)CC[C@@H]12 | -2.39 |
| COc1c(-c2ccc3cc(NS(C)(=O)=O)ccc3c2)cc(-n2ccc(=O)[nH]c2=O)cc1C(C)(C)C | 0.65 |
| C=CC[C@@H]1/C=C(\C)C[C@H](C)C[C@H](OC)[C@H]2O[C@@](O)(C(=O)C(=O)N3CCCC[C@H]3C(=O)O[C@H](/C(C)=C/[C@@H]3CC[C@@H](O)[C@H](OC)C3)[C@H](C)[C@@H](O)CC1=O)[C@H](C)C[C@@H]2OC | 0.05 |
| Cn1cc(C[C@@H](N)C(=O)O)c2ccccc21 | -2.74 |
| Cc1cccc(C)c1NC(=O)CN1CCCC1=O | 9.37 |
